# Experimental data collected from several papers.
# Numbered parts are unrelated; each lists some results of a single study.

# Block 1
# Target: ATP-dependent RNA helicase DDX3X, helicase core (DDX3X, Homo sapiens, UniProt O00571, residues 132-607)
# Sequence of UniProt O00571 (132-607, looked up): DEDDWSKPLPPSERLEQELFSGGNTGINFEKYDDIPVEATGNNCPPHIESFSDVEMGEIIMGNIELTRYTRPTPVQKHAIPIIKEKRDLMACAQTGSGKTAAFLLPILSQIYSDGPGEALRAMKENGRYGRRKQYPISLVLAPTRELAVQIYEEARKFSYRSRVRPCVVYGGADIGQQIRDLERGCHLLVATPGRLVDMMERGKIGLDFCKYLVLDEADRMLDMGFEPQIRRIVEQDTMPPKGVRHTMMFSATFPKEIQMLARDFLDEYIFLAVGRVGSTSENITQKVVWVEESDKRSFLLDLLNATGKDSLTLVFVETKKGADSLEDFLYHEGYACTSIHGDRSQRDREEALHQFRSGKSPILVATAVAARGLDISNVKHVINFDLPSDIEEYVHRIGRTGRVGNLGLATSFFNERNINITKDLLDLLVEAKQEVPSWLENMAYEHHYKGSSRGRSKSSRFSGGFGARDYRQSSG
# Method: RNA Bind-n-Seq
# Form: RNA
# Medium: in vitro
# Tested at: not given
# Setting: 4-mer, random 30-nt RNA, single round
# Added: RocA, ADP, phosphate
# Reference: input library
# Reading: higher = stronger binding
Strand,4-mer enrichment [fold]
GUGU,1.21
UUUG,1.06
UGGC,0.828
GAAC,0.949
AGCU,0.865
GCUG,0.866
UCGC,0.7
CCAC,0.772
CGGC,0.729
AUUC,0.717
UCUC,0.704
CGCG,0.848
UUCU,0.755
CCAA,0.769
UUUU,1.07
UAAG,1.12
CCGG,0.767
CCCG,0.867
UUAA,0.972

# Block 2
# Target: Fragile X messenger ribonucleoprotein 1, C-terminal low-complexity region (Fmr1, Mus musculus, UniProt P35922)
# Method: RNA Bind-n-Seq
# Form: RNA
# Medium: in vitro
# Tested at: 200 nM
# Setting: whole 134-nt RNA, ends assumed
# Added: 150 mM LiCl
# Reference: input library
# Reading: higher = stronger binding
# Each molecule: 7-deaza-guanosine replaces G
Strand,log2 enrichment
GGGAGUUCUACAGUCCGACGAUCACCAUGCAGGUGGGCAUCUUUUGGAAGUGGGGCAAGGGGGGGAUAGGGAGGGGGGUAACACUUUGGGAACAGGUGGUCCCAGGUCGUUUCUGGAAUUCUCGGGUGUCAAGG,1.31
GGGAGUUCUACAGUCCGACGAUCCUGUGCUACACAUCGUAUGUACCGAAUCGGCCCCCCCGGGGCCCCCCCGGGCCCCCCCGGGGAAAGUAUUAUGUUACGCCGUUCGGAUCUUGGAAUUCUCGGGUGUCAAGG,-2.49
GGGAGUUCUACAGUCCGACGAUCCCUCAAGUCCUGUGCUACACAUCGUAUGUACCGAAUCGGAAGGAAGGGAAGGGAAAGUAUUAUGUUACGCCGUUCGGAUCUGCACUUCCAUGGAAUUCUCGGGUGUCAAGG,-0.974
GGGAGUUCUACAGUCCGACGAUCAGUCCUGUGCUACACAUCGUAUGUACCGAAUCGGGGUUUGGGGUGGGGAAAAAGGGGAAAGUAUUAUGUUACGCCGUUCGGAUCUGCACUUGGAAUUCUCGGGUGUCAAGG,-0.0949
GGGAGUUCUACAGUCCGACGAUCCACAGACAACACGCACCCACACAGACAGAGAGGGAAGGGGUUGGGAUGGGGACAGGGUGCACAGCAGGGCGGGGUAGGACCCCAGCCCCUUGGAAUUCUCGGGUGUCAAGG,0.567
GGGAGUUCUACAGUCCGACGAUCGCAGGAAGUAAAAACAAAUGGAAAUGCUUCGAAAAGUGGCAGGGGUGGGGGUUGCUAAGGAAAGGGUGGGAUGGGAGUGGGUAAAGAGUUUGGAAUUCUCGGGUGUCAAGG,1.53
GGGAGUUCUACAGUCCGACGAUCUCAUUGCAUGAAAAGUGGAAAAGUUUAGAUCUAUGGAAACAGAACUGUUGCCUAUAUGGAAAAUCAGUGCCUUGUGGCAAUACAGGUAAGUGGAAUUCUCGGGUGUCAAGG,-2.66
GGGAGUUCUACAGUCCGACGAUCCUCAAGUCCUGUGCUACACAUCGUAUGUACCGAAUCGGAGGUUUUUGGAAAGGAAAGUAUUAUGUUACGCCGUUCGGAUCUGCACUUCCAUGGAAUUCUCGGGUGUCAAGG,-0.525
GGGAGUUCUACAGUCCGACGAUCCCUGUGCUACACAUCGUAUGUACCGAAUCGGGGUUUUUUUGGUUUUUUUGGGUUUUUUUGGAAAGUAUUAUGUUACGCCGUUCGGAUCUGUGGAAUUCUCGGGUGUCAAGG,0.811
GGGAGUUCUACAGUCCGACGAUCUCCUGUGCUACACAUCGUAUGUACCGAAUCGGGUUUUUGGGGUUUUUGGGGUUUUUGGGAAAGUAUUAUGUUACGCCGUUCGGAUCUGCAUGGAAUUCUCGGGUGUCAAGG,0.39
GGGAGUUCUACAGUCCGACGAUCCAAGUCCUGUGCUACACAUCGUAUGUACCGAAUCGGGAAAAAAAGGGAGGGUGGGAAAGUAUUAUGUUACGCCGUUCGGAUCUGCACUUCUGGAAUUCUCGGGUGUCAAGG,-0.362

# Block 3
# Target: Histone acetyltransferase KAT6A, winged helix 2, GST fusion (KAT6A, Homo sapiens, UniProt Q92794, residues 85-181)
# Method: protein binding microarray
# Form: double-stranded DNA, one strand shown
# Medium: in vitro
# Tested at: not given
# Setting: 8-mer, flanks averaged, mean of 2 arrays, mostly near background
# Reference: not given
# Reading: higher = stronger binding
# Residues (chain): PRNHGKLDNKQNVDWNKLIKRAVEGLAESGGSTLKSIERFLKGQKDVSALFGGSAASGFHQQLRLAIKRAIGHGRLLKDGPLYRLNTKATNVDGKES
Strand,E-score
CTGGTTTC,0.162
AATTCGCG,0.107
TATATTAA,0.107
GTCTAGAA,-0.147
GCCACCCA,0.151
ACTGGGAA,0.0971
GACCATAC,-0.13
ATTGCAGG,0.132
AATGCGGT,-0.000985
CACGTGCA,-0.136
ATTACAGG,-0.0995
GACTTAAC,-0.146
ATTATCTA,0.146
CACTCGTC,-0.19
CGCAAATA,0.0432
CGCACTAA,0.16
TGCGCGCA,0.00745
CGAAGCGA,0.0833
ATGTGCCG,-0.0285
AACGGAAT,0.00275
AAGAATAA,-0.0592
CCTAGGTC,0.00253
GTATGAAC,-0.0437
CAACTTGG,-0.0618
AGTGCTCA,-0.00775

# Block 4
# Target: RNA binding protein fox-1 homolog 2, RRM domain, GST-SBP tag (RBFOX2, Homo sapiens, UniProt O43251-10, residues 100-194)
# Method: RNA Bind-n-Seq
# Form: RNA
# Medium: in vitro
# Tested at: 365 nM
# Setting: natural RNA segment, single round, ends assumed
# Reference: no-protein control
# Reading: higher = stronger binding
# Construct (chain): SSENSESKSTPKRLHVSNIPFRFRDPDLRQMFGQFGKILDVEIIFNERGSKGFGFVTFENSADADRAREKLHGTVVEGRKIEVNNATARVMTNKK
Strand,RBNS enrichment (R)
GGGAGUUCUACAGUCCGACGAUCGCCUGAGGACACUCCUGUCGUUGCUGCAGAAGCUGCUGCCCCUGUUCCAUCUGCUGUACUAACCAGGAGCCCUCCCAUGGAGAUGCAGCCCCCUGUCUCUCCUCAGCAGUUGGAAUUCUCGGGUGCCAA,0.371
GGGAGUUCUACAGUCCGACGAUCACACCCUUUGUAUUUGACCUCUUCCCAGUUCCUGCCCUGUUUCUGUAUCUUUACUUGAAAGUUGGGAGUCCUUGUUUAAUUUAGGUCUGUCUUCUUGUGUGACUGUUUCUUGGAAUUCUCGGGUGCCAA,0.36
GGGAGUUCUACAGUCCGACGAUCGCCACAGGCUGGAAGCUGACAGCCUAGCAGGCACUCCCUUCCUCUCUUCCUUCUGCUGUGUUCCUAUAGCCACUGGGCUAAUCUCCCCCUUGCUUUAGGCUGUAUAUAGCUGGAAUUCUCGGGUGCCAA,0.624
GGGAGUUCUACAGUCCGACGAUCAGGUGAGCUAGACCCAACCCUUAGCUUUUAGCCUGGCUGUCACCUUUUUAAUUUCCAGAACUGCACAAUGACCAGCAGGAGGGAAGGACAGACAUCAAGUGCCAGAUGUUUGGAAUUCUCGGGUGCCAA,0.599
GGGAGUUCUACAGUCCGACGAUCUGGGCAGGGAGGGCCUGUCUGUGACUCGCUCUGGACCCCACUUCCCGCUCUGGCCAAGGGCUGUCUUCUGUGCACAUAGCUCAGGAGCCUGCAGCAGUUCCCUGUAUGGGUGGAAUUCUCGGGUGCCAA,0.468
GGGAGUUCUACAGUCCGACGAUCCCUUGUUCUGAGCCCUGACAUGUGCUUGGGCACUGGUGGGCCUGGGCUUCUGAGGUGGCCUCCUGCCCUGAUCAGGGACCCUCCCCGCUUUCCUGGGCCUCUCAGUUGAAUGGAAUUCUCGGGUGCCAA,0.369
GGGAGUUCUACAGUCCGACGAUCUUGUUUUUGGUUUUUGUGUGUGUGUGUGUGUGCUGCAUGCACAUGCGUCCAAGACUUACGGGUGGUUUAGGGGAAAGUGCUAGCAACAGUGUCAAUGUCAUUGUUAACUAUGGAAUUCUCGGGUGCCAA,0.644
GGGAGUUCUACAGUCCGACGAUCUGCACACCAGGAGUGUUUGCACAGAAUACUGGGUGUCUUCUGUCUUGAAGAAAGGCAGUGUCCCCGAGUCACACAGCACAGCAGGUAGCAUCAACUAGAGCUAGUUAAUGUGGAAUUCUCGGGUGCCAA,0.406
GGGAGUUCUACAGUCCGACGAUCUUUCAUAGCCAACAAGAAUCAGUAGAAGUGCUGGGAGCAGCAGCUGGGGAAGCUGCCGCCCACGGGCUCUGCCCCUUCCAGCUGGAGCCGCCCGUGCCUCCAGGGGCCAAUGGAAUUCUCGGGUGCCAA,0.429
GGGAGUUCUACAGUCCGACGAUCAAUAAAAAUGUGUGUAUUAUAUAUAUAUAUUUUUUCCUCCUUGACAGUACUUGGUCACAAUAUCAAGUGUAUUUUUGUACAUAAUAUAUAUUGAUUAGAAAAACGUCAAUUGGAAUUCUCGGGUGCCAA,0.526
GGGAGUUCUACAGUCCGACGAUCGUUUAUUCUGAUGCAUUCUGAUGGGUCAGUGUCGUGUCAUUAAUUAAUAAAGGCAUUUUCUUCUCAUACAGUUUCAUACAGACGUGUGGAUUGUGCCUCACUCUGUCAGAUGGAAUUCUCGGGUGCCAA,0.426
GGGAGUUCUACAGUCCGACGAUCACUUACCACAAUUUGUAACCCUGAAUCUCUCCUGUGCUCUGGUGUUCAGAAAGCUGAGACAGCUGGGCCCAGUUGAUGUUGUACGUGAGAAAGAGGCAGUCUGUUGGAGAUGGAAUUCUCGGGUGCCAA,0.301

# Block 5
# Target: Prothrombin, mature alpha-thrombin (F2, Homo sapiens, UniProt P00734)
# Method: aptamer microarray, sandwich
# Form: DNA with 2'F-ANA
# Medium: in vitro
# Tested at: 200 nM
# Setting: whole 15-mer aptamer, many near background
# Added: Cy3 exosite-II aptamer, 400 nM
# Reading: higher = stronger binding
# Strand: GGTTGGTGTGGTTGG
Modification,mean fluorescence intensity
2'F-ANA at 3 6 7 11 12 15,1190 a.u.
2'F-ANA at 2 3 5 6 7 8 10 13 14 15,88.6 a.u.
2'F-ANA at 4 5 6 7 9 13 14 15,44.7 a.u.
2'F-ANA at 2 5 8 10 11 12 14 15,49.1 a.u.
2'F-ANA at 3 5 8 10 11,65.8 a.u.
2'F-ANA at 1 2 3 4 6 7 8 11 13,126 a.u.
2'F-ANA at 1 4 5 8 11 13 14 15,50.4 a.u.
2'F-ANA at 5 6 9 10 11 14 15,55.5 a.u.
2'F-ANA at 2 3 4 7 8 11 14,338 a.u.
2'F-ANA at 2 4 5 7 9 12,147 a.u.
2'F-ANA at 4 6 9 11 12 14,92 a.u.
2'F-ANA at 3 6 9 10 12 15,512 a.u.
2'F-ANA at 1 8 10 11 14 15,45.1 a.u.
2'F-ANA at 7 9 10 14 15,114 a.u.
2'F-ANA at 1 4 5 8 9 11 13,48.3 a.u.
2'F-ANA at 2 3 4 5 7 11 12 15,130 a.u.
2'F-ANA at 1 2 3 4 5 7 8 9 14 15,52.7 a.u.
2'F-ANA at 1 2 4 6 7 8 9 10 13 15,49.2 a.u.
2'F-ANA at 1 2 4 9 10 11 13 15,115 a.u.
2'F-ANA at 1 2 3 4 7 8 9 10 11 12 13 14,50.4 a.u.
2'F-ANA at 1 4 10 11 13,47.6 a.u.
2'F-ANA at 1 2 5 6 9 10 13 14,46.5 a.u.
2'F-ANA at 1 2 3 5 6 10 12 14,44.4 a.u.
2'F-ANA at 1 2 3 4 5 7 10 11 13,46.5 a.u.
2'F-ANA at 1 2 5 9 10 11 12 13 14 15,45.8 a.u.

# Excerpt of the above (block 3):
Strand,E-score
CGCACTAA,0.16
ATTACAGG,-0.0995
ATTATCTA,0.146
CACTCGTC,-0.19
ACTGGGAA,0.0971
ATGTGCCG,-0.0285
CGAAGCGA,0.0833
CAACTTGG,-0.0618
AATTCGCG,0.107
CTGGTTTC,0.162
GACTTAAC,-0.146
CGCAAATA,0.0432
GCCACCCA,0.151
